Measurements of several laboratories.
A part holds a random share of what one study measured. Positions count from the first letter of the parent shown.

Series 1 — technique: protein binding microarray; form: double-stranded DNA, one strand shown; sample: in vitro; tested at: not given; baseline: not given; reading: higher = stronger binding
Target: Histone acetyltransferase KAT6A, winged helix 2, GST fusion (KAT6A, Homo sapiens, UniProt Q92794, residues 85-181)
Notes: 8-mer, flanks averaged, mean of 2 arrays, mostly near background
Construct (chain): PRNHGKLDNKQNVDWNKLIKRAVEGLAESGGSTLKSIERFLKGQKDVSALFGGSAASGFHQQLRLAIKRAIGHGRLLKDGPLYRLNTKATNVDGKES
Strand	E-score
GGAGTGGA	-0.0299
TAAGCCTA	-0.0646
GTGCGGGA	0.0909
CTAGGTGA	-0.217
CTAACGTA	-0.0433
AGGAACCG	-0.0368
AGCCAGGC	0.189
CTTAGTTA	0.0671
TAACGATA	-0.104
AACTCGAC	0.114
CCAGGAAC	-0.0478
ATTACTAC	-0.222
CGGGGTGA	0.0484
GTATTACA	-0.105
GGCCGGGA	0.287
ACAAGCAC	-0.000875
GAACACAC	0.0593
ATTAGGTA	-0.0118
AAATAGAA	-0.0041
CCACATAG	-0.157
ATTGAGGC	0.0776
CAGAGCCC	0.145
GGTTGGAC	-0.00176
CGGGAAGA	-0.0469
AACATAGA	-0.104

Series 2 — technique: RNA Bind-n-Seq; form: RNA; sample: in vitro; tested at: 365 nM; baseline: no-protein control; reading: higher = stronger binding
Target: RNA binding protein fox-1 homolog 2, RRM domain, GST-SBP tag (RBFOX2, Homo sapiens, UniProt O43251-10, residues 100-194)
Notes: natural RNA segment, single round, ends assumed
Shared flanks, not repeated: GGGAGUUCUACAGUCCGACGAUC … UGGAAUUCUCGGGUGCCAA
Residues (chain): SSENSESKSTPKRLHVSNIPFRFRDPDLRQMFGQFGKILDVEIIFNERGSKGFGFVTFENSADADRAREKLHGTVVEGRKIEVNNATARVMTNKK
Strand	RBNS enrichment (R)
UCAGGAGAGAGCAGGUCUGAGGAAUAUGCAAAACUGUAGUUACUGUGUGGGCCAUUGACUGCCUUGACCAGUAGAAGGGAUAACUAUUACACAGAUAGGCAGGCAGGGUG	0.63
GGCUCCUUUUAGUUUGUUGUCUUGCCCUACUGUGUAGCUCACUGACUGAGAAUAAAGAAUACAGCAAGGCUGCCUUUGUCUUUGUUUUUCCUGGCUGUGUGUAGCUGUGG	1.59
GGCAAAAACACAGUUCCUUACUUUGCAUUUAGUAAAAACAAGAAAAAGUGUUAGUGAGGGUUAAGCAGGAAUACUAACUGCUCAUUUCUCAGUUCAGUGGAUAUAUGUAU	0.63
GAUGGAUGAUUGCUUUUAACUACUGCCAGCUGAUGUCUCUCAGCCCCUGCCCUCAUACAAGAUUUUUCUCAGCCUUCAGCCUACCACUGCAGAAUCCGAUGUGACCCACC	0.611
CACGCCUGUAAUCCCAGCACUUUGGGAGGCUGAGGCGGGUGGAUCACAAGGUCAGGAGAUCAAGACCAUCCUGGCUAACACGGUGAAACCCUGUCUCUACUAAAAAUACA	0.349
GCACAAACAGUUGAACUUAGAAGUAGCAGUAUUGGCUUUAUGUAAUAAAGGAAGCAUUUUUGACUUACCUCUCGUGUAAUUUUCAUGUGUGAAUUGGGAAUACAGGAUUU	0.713
AACGAUUUUUAAAUAACGUCUGUGCCUCCACUGGUUGAGGGUGGAACCUCCAGGCAGGAACCGGCUCGCCACCCUCUGCCCGGUAAGGGCUGCCCAAGAAAGCAUUACCC	0.378
UGUGCAGCCUGGGCUGCUGUCAUUGCCCUCCAGUAAGGGCUCAGGGUUUUGCUUUUAGUCUCCCCUUCCUUCUGCCUUGGGGGCGGUACUCUGUGGAGCUGCUUAGGCCU	0.382

Series 3 — target: CCNB1, cyclin fold, Cln2 fusion (human); technique: yeast growth competition, sequencing; sample: yeast; notes: weak parent motif; baseline: not given; reading: higher = stronger binding
Parent: CDKN1A docking peptide (human); SKACRRLFGPVDS
Change	normalised enrichment score
SKAIRRLFGPVDS [C4I]	0.0878
SEACRRLFGPVDS [K2E]	0.416
SKACRRLIGPVDS [F8I]	0.407
SKACRRLFGPVTS [D12T]	0.247
SKACMRLFGPVDS [R5M]	0.0571
SKACRRLCGPVDS [F8C]	0.224
SKACWRLFGPVDS [R5W]	0.096
SLACRRLFGPVDS [K2L]	0.194
SKACRRLFGPVHS [D12H]	-0.0762
SKACRRLFIPVDS [G9I]	1.07
SKACRELFGPVDS [R6E]	0.0679
SKACRRLFGPCDS [V11C]	0.432
SKACRRGFGPVDS [L7G]	0.257

Series 4 — technique: RNA Bind-n-Seq; form: RNA; sample: in vitro; tested at: 200 nM; notes: whole 134-nt RNA, ends assumed; together with: 150 mM LiCl; baseline: input library; reading: higher = stronger binding; each molecule: 7-deaza-guanosine replaces G
Target: Fragile X messenger ribonucleoprotein 1, C-terminal low-complexity region (Fmr1, Mus musculus, UniProt P35922)
Shared flanks, not repeated: GGGAGUUCUACAGUCCGACGAUC … UGGAAUUCUCGGGUGUCAAGG
Strand	log2 enrichment
CACAGACAACACGCACCCACGCAGACACAGAGGGAAGGGGUUGGGAUGGGGACAGGGUGCACAGCAGGGCGGGGUAGGACCCCAGCCCCU	0.538
UGGCCCUGGUGGCAUGCGGGGAGGAAGAGGUGGCCUCAUGGAUCGUGGUGGUCCCGGUGGAAUGUUCAGCGGUGGCCGUGGUGGAGACAG	-0.626
ACCAUGCAGGUGGGCAUCUUUGGGAAGUGGGGCAAGGGGGGGAUAGGGAGGGGGGUAACACUUUGAAAACAGGUGGUCCCAGGUCGUUUC	1.3
CACAGACAACACGCACCCACACAGACACAGAGGGAAGGGGUUGGGAUGGGGACAGGGUGCACAGCAGGGCGGGGUAGGACCCCCGCCCCU	-0.995
UUGGACUUGGAGCAUCUGCUCAGUGAGUCUCCAGAAGGAAGUCCCUUCCGAGAUAUGGAUGAUGGAAGUGAUUCCCUUGGGGUGGGAUUG	-3.28

For quick reference, copied from above (series 1):
Strand	E-score
CTAGGTGA	-0.217
CTAACGTA	-0.0433
AGGAACCG	-0.0368
AGCCAGGC	0.189
